# Measured values of several laboratories.
# Each line is one published result; not all experiments were run side by side. ± marks the error that the study gave.
SMILES,assay,system,setting,scale,measurement,result
N=C(N)NCCC[C@H](NC(=O)[C@H](CCCNC(=N)N)NC(=O)[C@H](CCCNC(=N)N)NC(=O)[C@H](CCC(N)=O)NC(=O)[C@H](CCCNC(=N)N)NC(=O)[C@H](CCCNC(=N)N)NC(=O)[C@H](CCCCN)NC(=O)[C@H](CCCCN)NC(=O)[C@H](CCCNC(=N)N)NC(=O)CNC(=O)[C@H](Cc1ccc(O)cc1)NC(=O)[C@H](Cc1ccccc1)NC(=O)[C@H](Cc1ccccc1)NC(=O)[C@H](Cc1ccccc1)NC(=O)Cc1ccc2ccccc2c1)C(=O)O,,C57BL/6 mice,"intraperitoneal, 5 mg/kg, 48 h",direction not given,health score,5
CC(C)[C@@H]1NC(=O)CNC(=O)[C@H](CC(N)=O)NC(=O)[C@H](CCCNC(=N)N)NC(=O)[C@H](Cc2ccc(O)cc2)NC(=O)[C@H](C(C)C)NC(=O)[C@@H](NC(=O)[C@@H](NC(=O)[C@H](CC(N)=O)NC(=O)[C@H](Cc2c[nH]c3ccccc23)NC(=O)[C@H](C)NC(=O)[C@H](Cc2ccccc2)NC(=O)CNC(=O)[C@H](CCCCN)NC(=O)[C@H](Cc2ccccc2)NC(=O)[C@H](Cc2ccccc2)NC(=O)[C@H](CCCCN)NC(=O)OCC2c3ccccc3-c3ccccc32)C(C)C)CSSC[C@@H](C(=O)N[C@@H](Cc2c[nH]cn2)C(=O)N[C@@H](CCCNC(=N)N)C(=O)N[C@@H](CCCNC(=N)N)C(=O)N[C@@H](C)C(=O)N[C@@H](CC(N)=O)C(N)=O)NC(=O)[C@H](C(C)C)NC(=O)[C@H](CCCNC(=N)N)NC1=O,,ICR mouse,"ip, 5 mg/kg",direction not given,body posture score,0
COc1ccc(CNc2ccc3c(c2)S(=O)(=O)C=C3)cc1,,"male C57BL/6 mice, blood","intraperitoneal, 20 mg/kg, day 8, group average",,red cell distribution width CV,0.15%
CC(C)C[C@H](NC(=O)[C@H](Cc1ccc(O)cc1)NC(=O)[C@H](C)NC(=O)[C@H](CC(N)=O)NC(=O)[C@H](CC(C)C)NC(=O)[C@H](C)NC(=O)[C@@H](NC(=O)[C@H](CCCCN)NC(=O)CNC(=O)[C@@H](NC(=O)[C@H](CCCCN)NC(=O)[C@H](CCCCN)NC(=O)CNC(=O)[C@@H](NC(=O)[C@H](Cc1c[nH]cn1)NC(=O)[C@@H](NC(=O)[C@H](C)NC(=O)[C@H](CCCCN)NC(=O)[C@H](CCCCN)NC(=O)[C@H](Cc1ccccc1)NC(=O)[C@H](Cc1c[nH]c2ccccc12)NC(=O)[C@H](CCCCN)NC(=O)[C@H](CCCCN)NC(=O)[C@H](CC(C)C)NC(=O)CN)C(C)C)C(C)C)C(C)C)C(C)C)C(N)=O,,"zebrafish embryos 28 hpf, E3 medium",24 h,,chronic toxic concentration,5 µM
CN1Cc2cc(Cl)ccc2-n2c(nnc2C2CCN(c3cccc([18F])n3)CC2)C1,,"C57BL/6 mouse male, bone","intravenous, 3.7 MBq, 60 min",,tissue uptake,10.4 ± 3.5 %ID/g
C[C@H](O)[C@@H](NC(=O)[C@H]1CCCN1C(=O)[C@@H](CCCCN)NC(=O)[C@@H](CO)NC(=O)[C@@H](Cc1ccc(O)cc1)NC(=O)[C@@H](CC(N)=O)NC(=O)CCOCCOCCOCCNC(=O)CN1CCN(CC(=O)O)CCN(CC(=O)O)CCN(CC(=O)O)CC1)C(=O)N[C@H](CC(=O)O)C(=O)N[C@H](CCCNC(=N)N)C(=O)N[C@H](CCC(N)=O)C(=O)N[C@H](Cc1ccc(O)cc1)C(=O)N[C@H](Cc1c[nH]cn1)C(=O)N[C@H](Cc1ccccc1)C(N)=O [gallium-68 labelled],,"BALB/c nude mice U-87 MG tumour, fat","intravenous, 1.85 MBq, 2 h, radiolabelled",,tissue uptake,0.1 ± 0.07 %ID/g
CC1(C)C(=O)N(c2ccc(C#N)c(C(F)(F)F)c2)C(=S)N1c1ccc(C(=O)O)c(F)c1,,"male human, plasma","oral, 40 mg, single dose, fasted",,AUC,11400 ng·h/mL
CSCC[C@H](N)C(=O)N[C@@H](C)C(=O)N[C@@H](CCCNC(=N)N)C(=O)N[C@@H](CCCNC(=N)N)C(=O)N[C@@H](CC(=O)O)C(=O)N[C@@H](CCCCN)C(=O)N[C@H](C(=O)N[C@@H](CC(=O)O)C(=O)N[C@@H](Cc1ccccc1)C(=O)N[C@@H](C)C(=O)N[C@@H](CCCNC(=N)N)C(=O)N[C@@H](CCCNC(=N)N)C(=O)N[C@@H](CCCNC(=N)N)C(=O)N[C@@H](CCCNC(=N)N)C(=O)NCCCCCC(=O)NCCCCC(NC(=O)CCCCCNC(=O)[C@H](CCCNC(=N)N)NC(=O)[C@H](CCCNC(=N)N)NC(=O)[C@H](CCCNC(=N)N)NC(=O)[C@H](CCCNC(=N)N)NC(=O)[C@H](C)NC(=O)[C@H](Cc1ccccc1)NC(=O)[C@H](CC(=O)O)NC(=O)[C@@H](NC(=O)[C@H](CCCCN)NC(=O)[C@H](CC(=O)O)NC(=O)[C@H](CCCNC(=N)N)NC(=O)[C@H](CCCNC(=N)N)NC(=O)[C@H](C)NC(=O)[C@@H](N)CCSC)[C@@H](C)O)C(=O)NCCCCC(NC(=O)C(CCCCNC(=O)CCCCCNC(=O)[C@H](CCCNC(=N)N)NC(=O)[C@H](CCCNC(=N)N)NC(=O)[C@H](CCCNC(=N)N)NC(=O)[C@H](CCCNC(=N)N)NC(=O)[C@H](C)NC(=O)[C@H](Cc1ccccc1)NC(=O)[C@H](CC(=O)O)NC(=O)[C@@H](NC(=O)[C@H](CCCCN)NC(=O)[C@H](CC(=O)O)NC(=O)[C@H](CCCNC(=N)N)NC(=O)[C@H](CCCNC(=N)N)NC(=O)[C@H](C)NC(=O)[C@@H](N)CCSC)[C@@H](C)O)NC(=O)CCCCCNC(=O)[C@H](CCCNC(=N)N)NC(=O)[C@H](CCCNC(=N)N)NC(=O)[C@H](CCCNC(=N)N)NC(=O)[C@H](CCCNC(=N)N)NC(=O)[C@H](C)NC(=O)[C@H](Cc1ccccc1)NC(=O)[C@H](CC(=O)O)NC(=O)[C@@H](NC(=O)[C@H](CCCCN)NC(=O)[C@H](CC(=O)O)NC(=O)[C@H](CCCNC(=N)N)NC(=O)[C@H](CCCNC(=N)N)NC(=O)[C@H](C)NC(=O)[C@@H](N)CCSC)[C@@H](C)O)C(N)=O)[C@@H](C)O (some centres unmarked),,"C57BL/6 mouse female, stomach","dose not given, 3 h",relative to: total,mean tissue distribution,44.3%
CSCC[C@H](NC(=O)CNC(=O)[C@H](CCCCN)NC(=O)[C@H](CC(C)C)NC(=O)[C@@H]1CCCN1C(=O)[C@H](CO)NC(=O)[C@H](Cc1c[nH]cn1)NC(=O)[C@H](Cc1c[nH]c2ccccc12)NC(=O)[C@H](CCCNC(=N)N)NC(=O)[C@H](CC(C)C)NC(=O)[C@H](CCCNC(=N)N)NC(=O)[C@H](Cc1c[nH]c2ccccc12)NC(=O)[C@H](CS)NC(=O)CCCCCNC(=O)CN1CCN(CC(=O)O)CCN(CC(=O)O)CCN(CC(=O)O)CC1)C(=O)O [copper-64 labelled],,"C57BL/6J mice, B16-F10 tumour, brain","intravenous, 1.85 MBq, 18 h",,tissue uptake,0.25 %ID/g
O=C(O)C(F)(OC(F)(F)C(F)(F)C(F)(F)F)C(F)(F)F (centres unmarked),19F NMR titration,MeOH/water,27 °C,,pKa,-0.2 ± 0.09
COc1cc2c(cc1O)C(CCc1ccc(Cl)cc1)N([11CH3])CC2 (centres unmarked),PET,"Sprague-Dawley rat, male, brain NR2B-rich regions","intravenous, 1 mg/kg, carrier added",,"half-maximal concentration, time to",11 min
CC(C)C[C@H](NC(=O)[C@@H](N)CO)C(=O)N[C@@H](Cc1c[nH]c2ccccc12)C(=O)N[C@@H](CCC(=O)O)C(=O)N[C@@H](CC(N)=O)C(=O)N[C@@H](Cc1ccccc1)C(=O)N[C@@H](CCCCN)C(=O)N[C@@H](CC(N)=O)C(=O)N[C@@H](C)C(=O)NCC(=O)N[C@@H](CCCCN)C(N)=O,,horse erythrocytes,"2 h, 37 °C",relative to: Triton X-100,HC50,> 128 µM
O=C1NC2(CC2)COc2ncc(F)cc2[C@H]2COCCN2c2ccn3ncc1c3n2,,"Sprague-Dawley rat, male, plasma","oral, 5 mg/kg/day, end of recovery, 4-week repeated-dose toxicity",,prothrombin time,9.1 ± 0.3 s
CC[C@H](C)[C@H](NC(=O)[C@H](CCCCN)NC(=O)CNC(=O)[C@H](CC(C)C)NC(=O)[C@H](Cc1ccccc1)NC(=O)[C@H](CCCCN)NC(=O)[C@H](CO)NC(=O)[C@H](Cc1ccccc1)NC(=O)[C@H](Cc1c[nH]c2ccccc12)NC(=O)[C@H](CCC(N)=O)NC(=O)[C@@H](NC(=O)[C@H](Cc1ccccc1)NC(=O)CCCCCNC(=O)CN1CCN(CC(=O)O)CCN(CC(=O)O)CCN(CC(=O)O)CC1)C(C)C)C(=O)N[C@@H](CCC(=O)O)C(=O)N1CCC[C@H]1C(=O)N[C@@H](CC(=O)O)C(=O)N[C@H](C(=O)N[C@@H](CO)C(=O)N[C@@H](CCC(N)=O)C(=O)N[C@H](C(=O)N[C@@H](CCC(N)=O)C(=O)N[C@@H](CC(=O)O)C(=O)N1CCC[C@H]1C(=O)N[C@@H](CC(N)=O)C(=O)N[C@@H](CC(=O)O)C(=O)N[C@@H](CCC(N)=O)C(=O)N[C@@H](Cc1ccc(O)cc1)C(=O)N[C@@H](CCC(=O)O)C(=O)N1CCC[C@H]1C(=O)N[C@@H](Cc1ccccc1)C(=O)O)C(C)C)C(C)C [copper-64 labelled],,"C57BL/6 mice, bone",together with: LPS 0.1 mg/kg intratracheal,,tissue uptake,0.5 ± 0.1 %ID/g

# Some of these lines once more:
SMILES,assay,system,setting,scale,measurement,result
COc1ccc(CNc2ccc3c(c2)S(=O)(=O)C=C3)cc1,,"male C57BL/6 mice, blood","intraperitoneal, 20 mg/kg, day 8, group average",,red cell distribution width CV,0.15%
